Published values gathered from unrelated publications.
A part holds a random share of what one study measured.
UniProt P54756, sequence (whole entry, looked up): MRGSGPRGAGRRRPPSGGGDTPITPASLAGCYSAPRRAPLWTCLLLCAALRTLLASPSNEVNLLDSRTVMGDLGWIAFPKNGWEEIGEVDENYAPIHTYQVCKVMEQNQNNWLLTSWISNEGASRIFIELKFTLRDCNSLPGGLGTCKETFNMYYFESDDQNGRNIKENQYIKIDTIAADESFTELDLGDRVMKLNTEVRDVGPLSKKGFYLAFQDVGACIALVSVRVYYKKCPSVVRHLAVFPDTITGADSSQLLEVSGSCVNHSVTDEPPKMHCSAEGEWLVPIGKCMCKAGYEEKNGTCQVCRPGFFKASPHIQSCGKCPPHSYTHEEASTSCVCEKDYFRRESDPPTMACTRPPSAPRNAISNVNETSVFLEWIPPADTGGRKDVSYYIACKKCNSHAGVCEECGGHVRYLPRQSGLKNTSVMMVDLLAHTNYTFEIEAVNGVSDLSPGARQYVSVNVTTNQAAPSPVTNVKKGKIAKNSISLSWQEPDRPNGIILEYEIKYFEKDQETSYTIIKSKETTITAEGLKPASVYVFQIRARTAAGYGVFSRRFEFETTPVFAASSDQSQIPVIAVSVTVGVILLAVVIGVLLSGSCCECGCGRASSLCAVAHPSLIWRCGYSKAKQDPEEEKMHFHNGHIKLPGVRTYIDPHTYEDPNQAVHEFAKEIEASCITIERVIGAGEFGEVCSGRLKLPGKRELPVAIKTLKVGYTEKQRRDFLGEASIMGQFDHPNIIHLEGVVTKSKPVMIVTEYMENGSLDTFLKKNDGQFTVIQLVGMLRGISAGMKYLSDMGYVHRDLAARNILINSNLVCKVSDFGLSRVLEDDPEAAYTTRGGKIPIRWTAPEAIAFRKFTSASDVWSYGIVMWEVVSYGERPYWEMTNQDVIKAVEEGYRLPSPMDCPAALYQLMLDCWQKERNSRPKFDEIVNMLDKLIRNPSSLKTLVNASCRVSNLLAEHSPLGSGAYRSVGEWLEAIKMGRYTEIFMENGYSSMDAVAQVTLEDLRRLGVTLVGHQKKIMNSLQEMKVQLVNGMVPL
UniProt P45983, sequence (whole entry, looked up): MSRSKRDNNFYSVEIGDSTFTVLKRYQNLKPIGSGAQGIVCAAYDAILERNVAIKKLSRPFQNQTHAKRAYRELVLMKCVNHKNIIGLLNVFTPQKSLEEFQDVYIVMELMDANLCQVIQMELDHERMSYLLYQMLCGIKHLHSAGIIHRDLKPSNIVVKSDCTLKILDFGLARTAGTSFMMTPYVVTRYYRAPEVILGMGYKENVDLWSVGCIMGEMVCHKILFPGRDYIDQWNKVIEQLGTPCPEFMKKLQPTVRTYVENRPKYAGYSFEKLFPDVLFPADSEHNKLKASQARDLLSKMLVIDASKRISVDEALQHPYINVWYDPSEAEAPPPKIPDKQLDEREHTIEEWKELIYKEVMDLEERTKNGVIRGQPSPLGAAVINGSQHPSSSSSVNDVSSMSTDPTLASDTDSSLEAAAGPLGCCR
UniProt P42680, sequence (whole entry, looked up): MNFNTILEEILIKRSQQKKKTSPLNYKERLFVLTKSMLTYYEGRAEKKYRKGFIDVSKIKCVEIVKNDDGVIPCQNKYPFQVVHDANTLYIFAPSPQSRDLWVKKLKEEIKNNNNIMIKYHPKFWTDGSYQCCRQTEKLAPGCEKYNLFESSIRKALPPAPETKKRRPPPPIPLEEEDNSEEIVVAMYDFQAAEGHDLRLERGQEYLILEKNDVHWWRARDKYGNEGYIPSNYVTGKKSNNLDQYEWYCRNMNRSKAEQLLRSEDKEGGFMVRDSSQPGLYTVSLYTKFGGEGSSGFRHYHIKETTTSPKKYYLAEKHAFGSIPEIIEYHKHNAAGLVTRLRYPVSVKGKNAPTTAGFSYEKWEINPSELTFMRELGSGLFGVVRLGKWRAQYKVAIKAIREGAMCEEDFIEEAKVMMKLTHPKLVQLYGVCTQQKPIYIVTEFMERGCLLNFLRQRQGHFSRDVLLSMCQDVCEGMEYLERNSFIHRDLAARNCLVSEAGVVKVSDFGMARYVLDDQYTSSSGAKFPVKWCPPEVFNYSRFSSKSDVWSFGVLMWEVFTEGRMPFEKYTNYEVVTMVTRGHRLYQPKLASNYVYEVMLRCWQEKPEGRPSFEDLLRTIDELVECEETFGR
UniProt P54753, sequence (whole entry, looked up): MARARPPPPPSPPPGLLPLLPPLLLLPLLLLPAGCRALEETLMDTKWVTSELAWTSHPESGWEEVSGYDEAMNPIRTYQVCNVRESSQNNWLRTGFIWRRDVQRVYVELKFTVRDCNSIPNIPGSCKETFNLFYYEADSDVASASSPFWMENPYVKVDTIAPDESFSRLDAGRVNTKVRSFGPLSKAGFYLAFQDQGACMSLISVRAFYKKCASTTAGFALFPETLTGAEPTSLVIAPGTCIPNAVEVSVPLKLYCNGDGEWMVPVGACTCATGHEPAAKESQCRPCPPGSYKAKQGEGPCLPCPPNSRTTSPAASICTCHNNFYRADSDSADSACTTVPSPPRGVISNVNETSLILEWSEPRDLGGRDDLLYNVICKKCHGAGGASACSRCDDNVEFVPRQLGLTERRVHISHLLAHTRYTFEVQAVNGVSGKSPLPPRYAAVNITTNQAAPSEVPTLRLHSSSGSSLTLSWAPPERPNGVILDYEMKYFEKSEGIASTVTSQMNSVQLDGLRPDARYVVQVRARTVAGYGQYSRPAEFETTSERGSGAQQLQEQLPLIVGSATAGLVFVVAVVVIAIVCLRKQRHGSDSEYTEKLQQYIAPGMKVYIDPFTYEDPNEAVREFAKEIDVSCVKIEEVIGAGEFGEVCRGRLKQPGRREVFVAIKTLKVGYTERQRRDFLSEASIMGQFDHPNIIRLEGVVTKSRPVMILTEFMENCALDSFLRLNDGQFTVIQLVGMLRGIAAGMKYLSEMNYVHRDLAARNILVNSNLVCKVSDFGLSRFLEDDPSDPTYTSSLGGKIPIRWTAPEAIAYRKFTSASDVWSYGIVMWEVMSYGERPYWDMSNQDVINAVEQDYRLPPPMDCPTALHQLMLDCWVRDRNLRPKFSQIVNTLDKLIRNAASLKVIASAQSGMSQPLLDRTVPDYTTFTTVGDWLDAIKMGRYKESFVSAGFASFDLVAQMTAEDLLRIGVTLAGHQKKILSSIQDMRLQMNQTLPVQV
UniProt Q96SB4, sequence (whole entry, looked up): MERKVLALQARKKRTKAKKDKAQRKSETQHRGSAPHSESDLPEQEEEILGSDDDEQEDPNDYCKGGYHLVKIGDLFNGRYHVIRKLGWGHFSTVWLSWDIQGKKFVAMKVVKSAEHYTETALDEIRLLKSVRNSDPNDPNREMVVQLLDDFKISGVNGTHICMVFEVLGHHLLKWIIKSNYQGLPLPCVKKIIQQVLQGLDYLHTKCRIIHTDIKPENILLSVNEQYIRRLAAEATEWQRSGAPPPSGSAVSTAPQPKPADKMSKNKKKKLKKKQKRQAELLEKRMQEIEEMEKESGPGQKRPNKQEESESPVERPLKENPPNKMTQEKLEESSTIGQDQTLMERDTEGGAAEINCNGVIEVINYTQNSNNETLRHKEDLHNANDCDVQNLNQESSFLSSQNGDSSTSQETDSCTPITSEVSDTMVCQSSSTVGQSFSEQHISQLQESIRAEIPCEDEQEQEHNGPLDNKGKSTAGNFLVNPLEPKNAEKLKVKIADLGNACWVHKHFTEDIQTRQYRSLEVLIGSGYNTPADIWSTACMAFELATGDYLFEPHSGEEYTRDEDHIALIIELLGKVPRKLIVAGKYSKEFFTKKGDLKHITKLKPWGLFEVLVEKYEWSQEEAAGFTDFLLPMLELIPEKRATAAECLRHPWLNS
UniProt P42679, sequence (whole entry, looked up): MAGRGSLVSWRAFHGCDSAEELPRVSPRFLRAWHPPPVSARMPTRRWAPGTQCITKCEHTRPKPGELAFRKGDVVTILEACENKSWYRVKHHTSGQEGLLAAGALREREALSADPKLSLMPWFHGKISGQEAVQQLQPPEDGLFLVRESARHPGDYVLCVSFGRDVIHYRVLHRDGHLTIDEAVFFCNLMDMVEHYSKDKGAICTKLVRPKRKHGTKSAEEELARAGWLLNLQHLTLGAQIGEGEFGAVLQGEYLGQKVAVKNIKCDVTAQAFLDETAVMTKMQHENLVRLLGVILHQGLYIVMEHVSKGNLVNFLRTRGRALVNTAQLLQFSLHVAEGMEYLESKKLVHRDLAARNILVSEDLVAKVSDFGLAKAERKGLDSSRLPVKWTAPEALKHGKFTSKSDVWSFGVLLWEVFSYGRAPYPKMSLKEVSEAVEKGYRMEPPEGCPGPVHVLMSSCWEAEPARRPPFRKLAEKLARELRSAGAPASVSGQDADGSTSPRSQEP
UniProt P49674, sequence (whole entry, looked up): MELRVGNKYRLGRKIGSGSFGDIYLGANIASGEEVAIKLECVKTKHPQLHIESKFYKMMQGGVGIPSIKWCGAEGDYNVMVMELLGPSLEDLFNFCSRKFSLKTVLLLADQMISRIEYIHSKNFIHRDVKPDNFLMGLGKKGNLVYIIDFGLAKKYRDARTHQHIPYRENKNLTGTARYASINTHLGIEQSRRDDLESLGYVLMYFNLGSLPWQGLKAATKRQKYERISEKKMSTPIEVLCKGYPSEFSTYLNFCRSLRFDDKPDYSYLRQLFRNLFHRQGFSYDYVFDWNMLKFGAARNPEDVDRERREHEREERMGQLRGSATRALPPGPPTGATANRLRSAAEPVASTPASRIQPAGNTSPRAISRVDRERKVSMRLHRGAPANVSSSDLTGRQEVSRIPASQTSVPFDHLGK
UniProt Q9HBY8, sequence (whole entry, looked up): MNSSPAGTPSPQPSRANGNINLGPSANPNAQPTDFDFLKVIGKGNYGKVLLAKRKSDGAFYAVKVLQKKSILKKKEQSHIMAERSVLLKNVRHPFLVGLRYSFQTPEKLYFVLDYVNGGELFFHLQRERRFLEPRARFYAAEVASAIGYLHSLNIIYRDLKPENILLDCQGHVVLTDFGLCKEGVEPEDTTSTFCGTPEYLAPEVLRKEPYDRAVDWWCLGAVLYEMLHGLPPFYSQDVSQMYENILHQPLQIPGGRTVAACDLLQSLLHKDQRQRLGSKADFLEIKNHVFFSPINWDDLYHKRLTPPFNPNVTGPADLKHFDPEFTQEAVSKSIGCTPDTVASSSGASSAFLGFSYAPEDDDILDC

Series 1 — effect on: cell-free assay; technique: competition with immobilised ligand; tested at: 1 µM; measurement: remaining binding
Compound: CCC(=O)N[C@H]1CC[C@@H](C(=O)N(C)c2ccc(-c3nc4ccccc4o3)cc2)C1
target = Serine/threonine-protein kinase PRP4 homolog (PRPF4B, Homo sapiens, UniProt Q13523); result = 99%
target = Epidermal growth factor receptor (EGFR, Homo sapiens, UniProt P00533, L858R); result = 97%
target = Mitogen-activated protein kinase 8 (MAPK8, Homo sapiens, UniProt P45983); result = 58%
target = Megakaryocyte-associated tyrosine-protein kinase (MATK, Homo sapiens, UniProt P42679); result = 100%
target = Ephrin type-A receptor 5 (EPHA5, Homo sapiens, UniProt P54756); result = 78%

Series 2 — effect on: enzyme activity; mode: inhibitor; tested at: 0.5 µM; baseline: control; measurement: remaining activity
Structure (SMILES): Cn1cc(/C=C2\C(=O)Nc3ccc(S(N)(=O)=O)cc32)c2ccccc21
target = Serine/threonine-protein kinase Sgk2 (SGK2, Homo sapiens, UniProt Q9HBY8); result = 80.7%
target = Dual specificity protein kinase CLK2 (CLK2, Homo sapiens, UniProt P49760); result = 38.1%
target = Ribosomal protein S6 kinase alpha-3 (RPS6KA3, Homo sapiens, UniProt P51812); result = 12.4%
target = SRSF protein kinase 1 (SRPK1, Homo sapiens, UniProt Q96SB4); result = 69%
target = Activin receptor type-1-like (ACVRL1, Homo sapiens, UniProt P37023); result = 99.1%
target = Muscle, skeletal receptor tyrosine-protein kinase (MUSK, Homo sapiens, UniProt O15146); result = 105%
target = Ephrin type-A receptor 2 (EPHA2, Homo sapiens, UniProt P29317); result = 93%
target = Tyrosine-protein kinase Tec (TEC, Homo sapiens, UniProt P42680); result = 157%
target = Serine/threonine-protein kinase PAK 6 (PAK6, Homo sapiens, UniProt Q9NQU5); result = 90.1%
target = Ephrin type-A receptor 6 (EPHA6, Homo sapiens, UniProt Q9UF33); result = 30.2%
target = Cyclin-dependent kinase 5, with p35 (CDK5, Homo sapiens, UniProt Q00535); result = 55.8%
target = Ephrin type-B receptor 3 (EPHB3, Homo sapiens, UniProt P54753); result = 93.2%
target = Serine/threonine-protein kinase PAK 4 (PAK4, Homo sapiens, UniProt O96013); result = 86.2%
target = Casein kinase I isoform epsilon (CSNK1E, Homo sapiens, UniProt P49674); result = 89%

Series 3 — technique: protein-binding microarray; form: double-stranded DNA, one strand shown; medium: in vitro; tested at: 2540 nM top; notes: 60-bp whole probe; added: salmon DNA 0.4 mg/ml; baseline: random background probes; direction: higher = stronger binding; measurement: fitted relative affinity; all sequences stand within: GCCTAGCAC … GTCTTGATTCGCTTGACGCTGCTG
Target: Interferon regulatory factor 3, full length, phosphomimetic (IRF3, Homo sapiens, UniProt Q14653, residues 1-427, S386D/S396D/S398D/S402D/T404D/S405D)
Construct (chain): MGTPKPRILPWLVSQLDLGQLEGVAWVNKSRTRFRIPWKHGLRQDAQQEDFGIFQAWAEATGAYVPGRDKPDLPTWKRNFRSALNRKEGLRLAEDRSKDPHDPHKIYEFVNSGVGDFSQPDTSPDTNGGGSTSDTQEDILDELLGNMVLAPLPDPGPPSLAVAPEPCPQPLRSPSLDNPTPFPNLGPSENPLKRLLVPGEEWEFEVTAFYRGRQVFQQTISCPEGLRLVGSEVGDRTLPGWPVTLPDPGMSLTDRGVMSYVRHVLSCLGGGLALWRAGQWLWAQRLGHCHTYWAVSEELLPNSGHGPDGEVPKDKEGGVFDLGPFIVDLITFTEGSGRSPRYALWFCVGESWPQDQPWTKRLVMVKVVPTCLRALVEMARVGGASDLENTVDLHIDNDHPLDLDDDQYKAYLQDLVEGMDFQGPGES
Strand = TCATTTTTCTTTTATTAACTGTGCTAG; result = 3.87 z-score
Strand = GACGGTTTGCTTTTCCTGACGTGCTAG; result = 1.93 z-score
Strand = TTAGGTTTCGACACTGCGTTAGTGCTA; result = 2.53 z-score
Strand = AAGGGTCTCTTGTTCTCTCTGTGCTAG; result = -0.48 z-score
Strand = GGAGTTTCCACCCTTCTCTCGTGCTAG; result = 3.43 z-score
Strand = TTAGATCTCAGTTGCGATTAGTGCTAG; result = 0.888 z-score
Strand = TCACCTATGTCATTTACACTGTGCTAG; result = 0.713 z-score
Strand = TGAGGACTGCTACTGCTTTAGTGCTAG; result = -1.03 z-score

Single results of other studies
SMILES = CCOC(=O)[C@@H]1CSCC(=O)N[C@H](CC)C(=O)N(C)[C@@H](C)C(=O)N[C@H](CC(C)C)C(=O)N2CCC[C@@H]2C(=O)N(CC(C)C)CC(=O)N[C@H](CC(C)C)C(=O)N(C)[C@H](C)C(=O)N[C@@H](CC(C)C)C(=O)N1C; medium = hydrocarbon/water; measurement = logD; result = 1.46
